Experimental data from different studies.
Protocols differ between the studies behind these lines. ± marks the error that the study gave.

SMILES	target or system	test	system	conditions	how to read	quantity	value
CC(C)OCCOCc1ccc(OCC(O)CN(N=O)C(C)C)cc1 (stereo not drawn)	Salmonella typhimurium	Ames test	TA1537	5 µg/plate, 30 % hamster S9	reference: solvent control	revertant fold increase	0.8 fold
COc1ccc2nc(NC(=O)c3ccc(C(N)c4ccccc4)cc3)sc2c1 (stereo not drawn)			CD-1 mice, female, plasma	10 mg/kg		AUC	1150 ng·h/mL
COc1cccc(OC)c1-c1cc(C(=O)NC2(C(=O)O)C3CC4CC(C3)CC2C4)nn1-c1ccc(C(=O)N(C)CCCN(C)C(=O)[C@H](CCCCNC(=O)[C@H](CC(C)C)NC(=O)C2OC2C(=O)O)NC(=O)CN2CCN(CC(=O)[O-])CCN(CC(=O)[O-])CCN(CC(=O)[O-])CC2)cc1C(C)C.[177Lu+3] (mixture of isomers)			mouse HT-29 xenograft	168 h, biodistribution	reference: tumour over large intestine	tumour-to-large intestine ratio	10.2
O=C([O-])CN1CCN(CC(=O)[O-])CCN(CC(CCCc2ccccc2[N+](=O)[O-])N(CC(=O)[O-])CC(=O)[O-])CC1.[90Y+3] (stereo not drawn)		HPLC	human serum	23 h, pH 7, 37 °C		intact radiolabelled complex	100%
CNS(=O)(=O)Nc1nccc(Cc2c(C)c3ccc(Oc4ncccc4F)cc3oc2=O)c1F	NCI-H1355	cell viability		7 days		IC50	762 nM
O=C(Nc1cnccc1-c1ccc([18F])nc1)c1ccnc(NC(=O)C2CC2)c1		ex vivo gamma counting	FVB/NJ mice, both sexes, cerebellum	intravenous, 120 min, mean, P-gp inhibitor pretreatment, with: tariquidar 15 mg/kg iv		SUV	0.093
C=CC(=O)Nc1cc(Nc2nccc(-c3c[nH]c4ccccc34)n2)c(OC)cc1N(C)CCN(C)C		storage stability	human plasma	24 h, on ice, LLOQ level		recovery	86.8%
COc1cccc(OC)c1-c1cc(C(=O)NC2(C(=O)O)C3CC4CC(C3)CC2C4)nn1-c1ccc(C(=O)NCCNC(=O)[C@H](CCCCNC(=O)[C@H](CC(C)C)NC(=O)C2OC2C(=O)O)NC(=O)CN2CCN(CC(=O)[O-])CCN(CC(=O)[O-])CCN(CC(=O)[O-])CC2)cc1C(C)C.[177Lu+3] (mixture of isomers)			mouse HT-29 xenograft	72 h, biodistribution	reference: tumour over large intestine	tumour-to-large intestine ratio	14.2
COc1cc2ncnc(Oc3ccc(Nc4nccc5[nH]cc(-c6ccc(F)cc6)c(=O)c45)cc3F)c2cc1OC			male cynomolgus monkey, plasma	intravenous, 1.5 mg/kg		clearance	0.683 mL/min/kg
C=C1CC[C@H](OCCCNC(=O)CCOCCOCCOCCOCCOCCOCCOCCOCCOCCOCCOCCOCCOCCOCCOCCOCCOCCOCCOCCOCCOCCOCCOCCOCCOCCOCCOCCOCCOCCOCCOCCOCCOCCOCCOCCOCCNC(=O)CCN2C(=O)CC(SC[C@H](NC(=O)[C@H](Cc3ccccc3)NC(=O)[C@H](CC(N)=O)NC(=O)[C@H](Cc3c[nH]cn3)NC(=O)[C@@H](NC(=O)[C@H](CC(=O)O)NC(=O)[C@H](CCC(N)=O)NC(=O)[C@H](CC(C)C)NC(=O)[C@H](CCCCN)NC(=O)[C@H](CCCCN)NC(=O)[C@H](CCCNC(=N)N)NC(=O)[C@H](CC(C)C)NC(=O)[C@H](Cc3c[nH]c4ccccc34)NC(=O)[C@H](CCC(=O)O)NC(=O)[C@@H](NC(=O)[C@H](CCCNC(=N)N)NC(=O)[C@H](CCC(=O)O)NC(=O)[C@H](CCSC)NC(=O)[C@H](CO)NC(=O)[C@H](CC(N)=O)NC(=O)[C@H](CC(C)C)NC(=O)[C@H](Cc3c[nH]cn3)NC(=O)[C@H](CCCCN)NC(=O)CNC(=O)[C@H](CC(C)C)NC(=O)[C@H](CC(N)=O)NC(=O)[C@H](Cc3c[nH]cn3)NC(=O)[C@H](CCSC)NC(=O)[C@H](CC(C)C)NC(=O)[C@H](CCC(N)=O)NC(=O)[C@@H](NC(=O)[C@H](CCC(=O)O)NC(=O)[C@H](CO)NC(=O)[C@@H](NC(=O)[C@@H](N)CO)C(C)C)[C@@H](C)CC)C(C)C)C(C)C)C(=O)O)C2=O)C/C1=C/C=C1\CCC[C@]2(C)[C@@H]([C@H](C)CCCC(C)(C)O)CC[C@@H]12 (stereo partly drawn)			male Sprague-Dawley rat, plasma	subcutaneous, 30 µg/kg, single dose		Tmax	25.2 min
CCCC[C@H](NC(=O)CCCCCCCNC(=O)CN1CCN(CC(=O)O)CCN(CC(=O)O)CC1)C(=O)N[C@H]1CC(=O)NCCCC[C@@H](C(N)=O)NC(=O)[C@H](Cc2c[nH]c3ccccc23)NC(=O)[C@H](CCCNC(=N)N)NC(=O)[C@@H](Cc2ccccc2)NC(=O)[C@H](Cc2c[nH]cn2)NC1=O [technetium-99m labelled]			C57 mouse, liver	intravenous, 0.037 MBq, 0.5 h		tissue uptake	2.78 ± 1.09 %ID/g
O=C([O-])CN1CCN(CC(=O)[O-])CCN(C(CO)C(O)CO)CCN(CC(=O)[O-])CC1.[Dy+3] (stereo not drawn)		ICP-MS	cynomolgus monkey	dose not given, 4 d, mass balance group	reference: dose	cumulative urinary excretion	98.8%
CCCCN1C(=O)c2cccc3c(NCCCCCN4CCOCC4)ccc(c23)C1=O			DMSO			fluorescence lifetime	10.4 ns
CC(C)(O)c1ncc([S@](N)(=O)=NC(=O)Nc2c3c(cc4c2CCC4)CCC3)s1		item: any system organ class	healthy human volunteers	oral, 300 mg single dose, spray-dried dispersion suspension		subjects with TEAEs	50%
OC1(C(F)(F)F)CCN(c2nc(Nc3ccnc(C(F)(F)F)c3)nc(-c3cccc(C(F)(F)F)n3)n2)C1 (stereo not drawn)			monkey, blood	oral, 10 mg/kg		MRT(0-inf)	48 ± 9.93 h
COC1CN([C@H]2CC[C@H]([C@@]3(C)Oc4c(Cl)cc(C(=O)NCc5c(SC)cc(C)[nH]c5=O)c(C)c4O3)CC2)C1		RNA-seq, item: IRF6 mouse homolog	mouse, HT-1376 xenograft, whole blood	dose not given	reference: vehicle	log2 fold change	1.04
Cc1ncsc1-c1ccc(C(C)NC(=O)C2CC(O)CN2C(=O)C(NC(=O)CCCCCCCCCCN2CCCC(Nc3ncc(Cl)c(Nc4ccccc4S(=O)(=O)C(C)C)n3)C2)C(C)(C)C)cc1 (stereo not drawn)	22Rv1	RNA-seq, item: SPSB2 mRNA		concentration not given	reference: DMSO	log2 fold change	-1.57
C=C(NC(=O)c1csc(-c2nc3c(cc2O)-c2nc(cs2)C(=O)NC(C(C)O)C(=O)NC(=C(C)OC)c2nc(cs2)C(=O)NC2c4nc(cs4)C(=O)NC(COC(=O)c4c5c6c(cccc6n4O)COC(=O)C(OC4CC(C)(O)C(N(C)C)C(C)O4)C2OC5)c2nc-3cs2)n1)C(N)=O (stereo not drawn)			cynomolgus monkey, male, plasma	intravenous infusion, 1.5 mg/kg twice daily, 0 to 30 h		half-life	312 min

Repeated from above:
SMILES	target or system	test	system	conditions	how to read	quantity	value
C=C1CC[C@H](OCCCNC(=O)CCOCCOCCOCCOCCOCCOCCOCCOCCOCCOCCOCCOCCOCCOCCOCCOCCOCCOCCOCCOCCOCCOCCOCCOCCOCCOCCOCCOCCOCCOCCOCCOCCOCCOCCOCCOCCNC(=O)CCN2C(=O)CC(SC[C@H](NC(=O)[C@H](Cc3ccccc3)NC(=O)[C@H](CC(N)=O)NC(=O)[C@H](Cc3c[nH]cn3)NC(=O)[C@@H](NC(=O)[C@H](CC(=O)O)NC(=O)[C@H](CCC(N)=O)NC(=O)[C@H](CC(C)C)NC(=O)[C@H](CCCCN)NC(=O)[C@H](CCCCN)NC(=O)[C@H](CCCNC(=N)N)NC(=O)[C@H](CC(C)C)NC(=O)[C@H](Cc3c[nH]c4ccccc34)NC(=O)[C@H](CCC(=O)O)NC(=O)[C@@H](NC(=O)[C@H](CCCNC(=N)N)NC(=O)[C@H](CCC(=O)O)NC(=O)[C@H](CCSC)NC(=O)[C@H](CO)NC(=O)[C@H](CC(N)=O)NC(=O)[C@H](CC(C)C)NC(=O)[C@H](Cc3c[nH]cn3)NC(=O)[C@H](CCCCN)NC(=O)CNC(=O)[C@H](CC(C)C)NC(=O)[C@H](CC(N)=O)NC(=O)[C@H](Cc3c[nH]cn3)NC(=O)[C@H](CCSC)NC(=O)[C@H](CC(C)C)NC(=O)[C@H](CCC(N)=O)NC(=O)[C@@H](NC(=O)[C@H](CCC(=O)O)NC(=O)[C@H](CO)NC(=O)[C@@H](NC(=O)[C@@H](N)CO)C(C)C)[C@@H](C)CC)C(C)C)C(C)C)C(=O)O)C2=O)C/C1=C/C=C1\CCC[C@]2(C)[C@@H]([C@H](C)CCCC(C)(C)O)CC[C@@H]12 (stereo partly drawn)			male Sprague-Dawley rat, plasma	subcutaneous, 30 µg/kg, single dose		Tmax	25.2 min
